{"data": "Results collected from several papers", "note": "Numbers after ± are the reported error."}
{"SMILES": "C=CC(N)CCC(=O)O (stereo not shown)", "system": "male Sprague-Dawley rat, plasma", "conditions": "oral, 1.0 mg/kg, formulation 1", "Cmax": "1400 ± 124 ng/mL"}
{"SMILES": "O=C(CCCCCCC(=O)Nc1ccccc1)NO", "system": "cancer patients, serum", "conditions": "oral, 400 mg, cycle 1 day 2, added: flavopiridol 30 to 30 mg/m^2", "Cmax": "3.48 µM"}
{"SMILES": "CCCC[C@H](NC(C)=O)C(=O)N[C@H]1CCC(=O)NC[C@@H](C(=O)N[C@@H](Cc2c[nH]c3ccccc23)C(N)=O)NC(=O)[C@H](CCCNC(=N)N)NC(=O)[C@@H](Cc2ccccc2)NC(=O)[C@H](Cc2c[nH]cn2)NC1=O", "system": "beagle dog, female, plasma", "conditions": "subcutaneous, 8.0 mg/kg daily, day 1", "Cmax": "615 ng/mL"}
{"SMILES": "O=c1[nH]c(=O)c(Cc2cccc(C(F)(F)F)c2)c([C@H]2CC[C@H](c3ccccc3)CC2)[nH]1", "system": "human, plasma", "conditions": "oral, 150 mg once daily, day 1, SDD suspension, fasted, geometric mean", "Cmax": "100 ng/mL"}
{"SMILES": "CC(C)[C@H](N)C(=O)NCCCS(=O)(=O)O", "system": "human, plasma", "conditions": "oral, 340 mg capsule, day 14, fasted, multiple dosing", "Cmax": "10400 ± 2880 ng/mL"}
{"SMILES": "Cc1cc(Nc2cc3ncccc3c(N[C@@H]3C[C@H]4CC[C@@H](C3)N4CCC#N)n2)n[nH]1", "system": "beagle dog, male, plasma", "conditions": "oral, 10 mg/kg/day, last day of 39 weeks", "Cmax": "7.5 ng/mL"}
{"SMILES": "CO[C@H]1C[C@@H]2CC[C@@H](C)[C@@](O)(O2)C(=O)C(=O)N2CCCC[C@H]2C(=O)O[C@H]([C@H](C)C[C@@H]2CC[C@@H](O)[C@H](OC)C2)CC(=O)[C@H](C)/C=C(\\C)[C@@H](O)[C@@H](OC)C(=O)[C@H](C)C[C@H](C)/C=C/C=C/C=C/1C", "system": "human, whole blood", "conditions": "oral, 30 mg, compound alone", "Cmax": "43.5 ng/mL"}
{"SMILES": "CC(C)=CCC[C@](C)(O[C@@H]1O[C@H](CO)[C@@H](O)[C@H](O)[C@H]1O)[C@H]1CC[C@]2(C)[C@@H]1[C@H](O)C[C@@H]1[C@@]3(C)CC[C@H](O[C@@H]4O[C@H](CO)[C@@H](O)[C@H](O)[C@H]4O[C@@H]4O[C@H](CO)[C@@H](O)[C@H](O)[C@H]4O)C(C)(C)[C@@H]3CC[C@]12C", "system": "Sprague-Dawley rat, plasma", "conditions": "oral, 200 mg/kg ginseng extract, control diet 2 weeks before dosing", "Cmax": "690 ± 473 ng/mL"}
{"SMILES": "CCCCCCCCCCCCCCCCCCOP(=O)([O-])OC1CC[N+](C)(C)CC1", "system": "rhesus monkey, male, cerebrospinal fluid", "conditions": "oral, 7 mg/kg, single dose, mean of 3", "Cmax": "3.6 ng/mL"}
{"SMILES": "CCN1CCN(c2ccc(Nc3cc(N(C)C(=O)Nc4c(Cl)c(OC)cc(OC)c4Cl)ncn3)cc2)CC1", "assay": "LC-MS/MS", "system": "juvenile male Crl:WI(Han) rats, plasma", "conditions": "oral gavage, 1.0 mg/kg/day, postnatal day 17", "Cmax": "34.1 ng/mL"}
{"SMILES": "Cc1nc2cccc(OCC(C)(C)C(=O)NC(C)C)c2c(N)c1C(=O)O", "system": "Sprague-Dawley rat both sexes, plasma", "conditions": "dietary, 100 mg/kg/day, day 7", "Cmax": "114 ng/mL"}
{"SMILES": "CC1=C2C[C@H]3[C@@H](CC[C@@H]4C[C@H](NS(C)(=O)=O)CC[C@@]43C)[C@@H]2CC[C@@]2(C1)O[C@@H]1C[C@H](C)CN[C@H]1[C@H]2C", "system": "patients, plasma", "conditions": "oral, 200 mg daily, day 22, cycle 1", "Cmax": "723 ng/mL"}
{"SMILES": "CS(=O)(=O)c1ccc(-c2cnc(N)c(-c3ccc(C(F)(F)F)nc3)c2)cc1", "system": "Sprague-Dawley rat, pregnant female, plasma", "conditions": "oral, 30 mg/kg/day, gestation day 17", "Cmax": "8610 ng/mL"}
{"SMILES": "CC(C)NC[C@@H](C(=O)N1CCN(c2ncnc3c2[C@H](C)C[C@H]3O)CC1)c1ccc(Cl)cc1", "system": "human, mild hepatic impairment (Child-Pugh), plasma", "conditions": "oral, 100 mg single dose, geometric mean", "Cmax": "53 ng/mL"}
{"SMILES": "CNC(=O)c1ccc(-c2cnc3ncc(Cc4ccc5ncccc5c4)n3n2)cc1F", "system": "human moderate hepatic impairment", "conditions": "oral, 200 mg single dose, adjusted geometric mean", "Cmax": "1440 ng/mL"}
{"SMILES": "C=CC(=O)N1CCC(CNc2ncnc(N)c2-c2ccc(Oc3ccccc3)cc2)CC1", "system": "cynomolgus monkey, male", "conditions": "oral, 10 mg/kg", "Cmax": "3.2 ng/mL"}
{"note": "A few entries again:"}
{"SMILES": "CC(C)[C@H](N)C(=O)NCCCS(=O)(=O)O", "system": "human, plasma", "conditions": "oral, 340 mg capsule, day 14, fasted, multiple dosing", "Cmax": "10400 ± 2880 ng/mL"}
{"SMILES": "Cc1cc(Nc2cc3ncccc3c(N[C@@H]3C[C@H]4CC[C@@H](C3)N4CCC#N)n2)n[nH]1", "system": "beagle dog, male, plasma", "conditions": "oral, 10 mg/kg/day, last day of 39 weeks", "Cmax": "7.5 ng/mL"}
